Results collected from several papers.
Each numbered part is a random draw from the data of one study; scales do not carry over between parts. Substitutions count along the parent as printed.

Block 1
Target: RNA binding protein fox-1 homolog 2, RRM domain, GST-SBP tag (RBFOX2, Homo sapiens, UniProt O43251-10, residues 100-194)
Technique: RNA Bind-n-Seq
Molecule type: RNA
Medium: in vitro
Tested at: 365 nM
Setting: natural RNA segment, single round, ends assumed
Baseline: no-protein control
Reading: higher = stronger binding
Shared flanks, not repeated: GGGAGUUCUACAGUCCGACGAUC … UGGAAUUCUCGGGUGCCAA
Residues (chain): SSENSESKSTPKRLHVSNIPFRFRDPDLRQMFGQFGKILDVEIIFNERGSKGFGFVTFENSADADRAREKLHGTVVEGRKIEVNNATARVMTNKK
`GAAAUGCCUCUUGGUCCUGUCCAAGUGUAUCUUUCACUGAUUUCUGAAUCAUGUUCUAGUUGCUUGACCCUGCCACAUGGGUCCAGUGUUCAUCUGAGCAUAACUGUACU` — result for “RBNS enrichment (R)”: 0.265.
For `AGGUUCAUGUAAGAGUAUCGUGGUGUAAAUAUAAUGGUUUCACAGCUGUUUGAAUUUUUCUUUUCCUGUGCCAGAUAUAGAAUGCAGUCAACCCUUUUUCAGUAACUUAU`, “RBNS enrichment (R)” read 0.784.
`AACAAGGCCUGGUCCUAGCAAACCUUAGCAUAUCUUCCCUUUUUAUUAUAAAUGGGUGGUUGUUUGGUUUGUUUAUUUUUAUAAUUUUUACUGAUGCUCAGUAACCAUGA` — result for “RBNS enrichment (R)”: 0.524.
For `CUCCGGAAGGCUGGGAGGAGGUGGGCUAGAUGAUCUUUGGAGCUUAAGGAGUCCCAGCCCUUUCUCUGAUGCCACCACCUGAACCCUGCUCCCUCGUGGGCCAGUGAAAA`, “RBNS enrichment (R)” read 0.691.
`UGGUUUUGAAAGUCUCUUCUCUGUAUAUUCCUACCCUGCAUUUGCUUUGUGUGGUGCUGAUGCUGUGCGCAGUAGGAUUCUUGGAUGACUCUCCAUCAGUCACAGACUCC`: “RBNS enrichment (R)” 1.14.
For `GUCGGGAACACAGCCGCUCCCCUCUGCUCUGCACCCCACUCGUGGGGGAACACAGCCGCUCCCCUCUGCUCUGCACCCCACUCGUGGGGGAACACAGCCGCUCCCCUCUG`, “RBNS enrichment (R)” read 0.336.
Under “RBNS enrichment (R)”, `GUUAUAUAAAAAAAUUGUAAAUGUUUAAUAUCUGACUGAAAUUAAACGAGCGAAGAUGAGCACCACCUCCCGUGUCUGCAGUUGUAUUUCCUGGUGCUUGCCCUGUGUUG` is recorded as 1.79.
For `GCAUUAGGAAGGUUGAGAACCACUUCUCUAGGGCUCAAUGUAUUAGAUAACUCACUAAGGGGUAAAAUAUGAAAUAUCAAAUCCUAAAAAGGAUAUUUAUAAUUAAAACA`, “RBNS enrichment (R)” read 0.852.

Block 2
Target: ABI1, truncated, D143A, DHFR fusion (Arabidopsis thaliana)
Technique: DHFR PCA, deep sequencing
Medium: yeast
Setting: methotrexate growth selection, single substitutions
With: (+)-ABA 0.032 µM
Baseline: wild-type fitted maximum
Reading: higher = stronger binding
Starting sequence: PYL1, truncated, DHFR fusion (Arabidopsis thaliana); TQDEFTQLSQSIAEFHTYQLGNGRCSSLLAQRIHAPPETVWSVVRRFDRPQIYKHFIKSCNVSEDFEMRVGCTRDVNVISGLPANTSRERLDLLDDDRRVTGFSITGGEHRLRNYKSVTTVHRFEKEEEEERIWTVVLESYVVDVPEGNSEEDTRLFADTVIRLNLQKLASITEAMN; partner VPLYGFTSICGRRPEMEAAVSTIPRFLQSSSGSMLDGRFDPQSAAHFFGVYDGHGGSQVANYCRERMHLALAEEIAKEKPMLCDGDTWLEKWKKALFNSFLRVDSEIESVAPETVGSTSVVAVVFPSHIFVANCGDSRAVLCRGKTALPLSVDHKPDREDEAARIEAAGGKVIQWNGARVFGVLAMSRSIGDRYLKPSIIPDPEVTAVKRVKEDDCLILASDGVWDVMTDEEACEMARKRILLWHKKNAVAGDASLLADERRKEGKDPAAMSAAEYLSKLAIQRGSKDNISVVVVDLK
`L112M` — result for “relative binding score”: 6.31%.
For `G148V`, “relative binding score” read -5.22%.
`Q7F`: “relative binding score” 21.7%.
`D97P`: “relative binding score” 7.15%.
`I133Q` — result for “relative binding score”: 38.7%.
For `N165F`, “relative binding score” read -1.99%.
Under “relative binding score”, `L20S` is recorded as 30.8%.
`R24D` — result for “relative binding score”: 3.66%.

Block 3
Target: Prothrombin, mature alpha-thrombin (F2, Homo sapiens, UniProt P00734)
Technique: aptamer microarray, sandwich
Molecule type: DNA with 2'F-ANA
Medium: in vitro
Tested at: 200 nM
Setting: whole 15-mer aptamer, many near background
With: Cy3 exosite-II aptamer, 400 nM
Reading: higher = stronger binding
Strand: GGTTGGTGTGGTTGG
`2'F-ANA at 1 6 9 10 12 13 14`: “mean fluorescence intensity” 46.6 a.u.
Under “mean fluorescence intensity”, `2'F-ANA at 1 2 3 4 5 6 7 8 10 14` is recorded as 45.9 a.u.
`2'F-ANA at 2 5 8 9 10 11 12 14 15`: “mean fluorescence intensity” 46 a.u.
Under “mean fluorescence intensity”, `2'F-ANA at 3 5 6 8 10 14` is recorded as 54.6 a.u.
`2'F-ANA at 3 5 6 7 9 12 14`: “mean fluorescence intensity” 54.4 a.u.
Under “mean fluorescence intensity”, `2'F-ANA at 1 2 3 7 8 9 11 13 15` is recorded as 183 a.u.
`2'F-ANA at 2 4 5 6 7 8 11 12 13` — result for “mean fluorescence intensity”: 138 a.u.
Under “mean fluorescence intensity”, `2'F-ANA at 1 2 4 5 8 9 11 13` is recorded as 52.3 a.u.

Further values, each from its own experiment
Starting sequence: viral docking peptide; KGVKRKLFAEDSS; partner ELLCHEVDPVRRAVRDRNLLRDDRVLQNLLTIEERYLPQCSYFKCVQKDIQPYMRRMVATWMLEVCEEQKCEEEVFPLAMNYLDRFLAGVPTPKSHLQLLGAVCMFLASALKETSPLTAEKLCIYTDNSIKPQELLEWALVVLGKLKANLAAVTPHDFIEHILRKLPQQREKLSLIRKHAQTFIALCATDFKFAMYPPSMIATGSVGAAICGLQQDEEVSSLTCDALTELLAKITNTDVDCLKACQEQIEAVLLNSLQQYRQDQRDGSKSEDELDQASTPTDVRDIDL
`KGVIRKLFAEDSS [K4I]`: “normalised enrichment score” 0.466 (CCND2, cyclin fold, Cln2 fusion (human); yeast growth competition, sequencing; yeast; weak parent motif; baseline: not given, higher = stronger binding).

Some of these lines once more (block 2):
`R24D` — result for “relative binding score”: 3.66%.
`I133Q` — result for “relative binding score”: 38.7%.
